Published values gathered from unrelated publications.
Every numbered part comes from another study and shows a few of its results, in no order.

Series 1 — method: RNA Bind-n-Seq; molecule type: RNA; medium: in vitro; tested at: 365 nM; relative to: no-protein control; direction: higher = stronger binding; quantity: RBNS enrichment (R)
Target: RNA binding protein fox-1 homolog 2, RRM domain, GST-SBP tag (RBFOX2, Homo sapiens, UniProt O43251-10, residues 100-194)
Setting: natural RNA segment, single round, ends assumed
Target sequence (chain): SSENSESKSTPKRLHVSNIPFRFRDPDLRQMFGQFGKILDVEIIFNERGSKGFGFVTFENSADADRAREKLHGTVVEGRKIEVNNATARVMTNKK
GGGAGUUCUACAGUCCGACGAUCGCGAAGAGAUCCCUGAAAAGCGGGAGAGGCUGUGUCUGCAGUGUGCAGACUGUGACCCUCGUGUUUGAGGAAAGCUGGUGUUUUCUGUGUUGGAACGCCACGGUUGCCAGUGGAAUUCUCGGGUGCCAA: 0.329
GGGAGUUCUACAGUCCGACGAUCUGUCAAUUUGAAAACUACAUCUACUGUAUUAUUGCUGAAUAUUUUGUUAAUACUAAGGGACAAUUAUUUUAAGACCAUGGGUUUUGUUUUUAACAUAUUUUAUUUCUGCAUGGAAUUCUCGGGUGCCAA: 1.06
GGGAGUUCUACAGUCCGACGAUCUUGUGGGCCCUGGAGGCUCCCUGCAUUGGAGGAAGGGCAGCUCAGCAGCUCAGGACCCUUUCCCUUAGGGGCUGCUUCCUCCCCUCAAAACCAGAACCUGGCAAGGGACUUGGAAUUCUCGGGUGCCAA: 0.419
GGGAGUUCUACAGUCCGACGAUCGACGUGGCCAGCACCACGUCCAGCAGCGAGAGCUUGUGGGAGCUGCACCUGACUGGGAGCUAGGGGACCACCUGCCUUGGCCAGACCUGGGACGCCCCCAGACCCUGACUUGGAAUUCUCGGGUGCCAA: 0.655
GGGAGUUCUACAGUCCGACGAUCCAGAAAGGUUCCAUUUAUGUUUUACUCCUGAAAGUGAAACCCUCUUAGGCAACUUGUUUCAUAUUCUGGGCAUUUUAGUAGCUACAGUAUUUUGCAUUUAAAAUGUAAUUUGGAAUUCUCGGGUGCCAA: 0.87
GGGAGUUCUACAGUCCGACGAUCAGGAACUGCUGGCCGAGCCCGCUGGGAGUCUAGAAAGAGAAAAUCUGUUUCUAGACCUCAGUUAUUUUCCCAUUUUUGGUUGUUUUGAAGCAGUAACAUUUUUCUCAGUGUGGAAUUCUCGGGUGCCAA: 0.349
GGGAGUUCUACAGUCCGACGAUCGCUAUGGAAGAGUUUUGUGUUUUGUUUUUUGUUUUGUUUUUUUUUUUAAUUUAUUGUAGAUGUAAACAGAAUUUUAAAAAUAAAAUAUAAACAUCACUGCACUGUGACUGUGGAAUUCUCGGGUGCCAA: 0.948
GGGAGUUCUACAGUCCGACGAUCUCCAGGUGCGCACUUUAAAGAAAGUGGCCACCAGGUGUGAUGGUGCAGUCCUAUAGUAACCGAGCUUGCACUCGGGAGGUAGGAAGCCAGAGGCCAGCCUCAAGGUGGCCUGGAAUUCUCGGGUGCCAA: 0.183
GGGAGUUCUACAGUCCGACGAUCAUUUGUCUGUUUCUUAAAUGAUCUCACAGCCAUGGUAAUAAUAGAUGUGUACUCAGAAGAUCAAUAAGGUAAUAUUGGAAUUCAUGUGUUUUUUGCAAUUAAGGCAGGCAUGGAAUUCUCGGGUGCCAA: 0.938
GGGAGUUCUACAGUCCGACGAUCAUGCACUGAGUAUGCAAUGCUAUCACUGUCUUUGACUGUGAUUUUAUGUUUAAAAAGUAUGUUCUAAAAUUAUUAUAUAUACAUGGGUGAAUUAUGUUUCCGAGGCACUGUGGAAUUCUCGGGUGCCAA: 0.572
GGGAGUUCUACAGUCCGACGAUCAUGCUGACGACUGAAGCCCCAUAUAGACCCGUGAUGGGUGGCUGCUGGAAUCCCUUACUCUGGCCCUUGGACUUUGGAAAUGUGGGAGGGGCAGGGAACAAUAUGGGGAAUGGAAUUCUCGGGUGCCAA: 1.22
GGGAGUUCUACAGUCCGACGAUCUCUCACCCAUGAGGGACAACAGGUGACUCAGAAAGGCAGUGUCACAACUAGAACACUCUGCCUUGGUCUCCUUAUCCAGUGCUCACCCACAGUAUGAAAUGGAUGCUUCCUGGAAUUCUCGGGUGCCAA: 0.239

Series 2 — method: RNA Bind-n-Seq; molecule type: RNA; medium: in vitro; tested at: not given; setting: RNA with constant flanks, ends assumed; relative to: input RNA pool; direction: higher = stronger binding; quantity: bound/input enrichment
Target: RING finger protein unkempt homolog, zinc fingers 1-6, GST-SBP tag (UNK, Homo sapiens, UniProt Q9C0B0, residues 30-357)
Sequence of UniProt Q9C0B0 (30-357, looked up): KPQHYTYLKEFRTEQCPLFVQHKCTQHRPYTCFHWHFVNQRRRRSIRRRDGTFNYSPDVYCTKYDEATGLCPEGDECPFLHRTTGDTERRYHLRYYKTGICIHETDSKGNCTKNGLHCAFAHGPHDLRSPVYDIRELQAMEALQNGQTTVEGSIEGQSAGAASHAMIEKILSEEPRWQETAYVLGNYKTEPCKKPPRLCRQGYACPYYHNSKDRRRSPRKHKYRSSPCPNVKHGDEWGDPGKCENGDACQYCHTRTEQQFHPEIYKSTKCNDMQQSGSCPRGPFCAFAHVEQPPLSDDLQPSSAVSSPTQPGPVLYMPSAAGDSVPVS
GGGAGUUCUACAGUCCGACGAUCUCCACGUCAGAAGACAAUCGCCCUUUAACUGGACUUGCAGCUGCAAUUGCGGGAGCAAAACUCCGGAAAGUGUCCCGGGUGGAGGAUGGCUCUUUCCCAGGUGGAGGGAAUACUGGGAGUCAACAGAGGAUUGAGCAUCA: 0.165 ratio
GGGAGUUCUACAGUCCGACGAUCAGCGGAGGCUCAGGAGCCAAGCCCUCAGACGCAGCAUCAGAAGCUGCUCGCCCAGCUACCCGUACUUUGAAUCGCUUCUCAGCCCUUCAACAAGCGGUACCCACAGAAAGCACAGAUAAUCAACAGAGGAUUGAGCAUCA: 0.13 ratio
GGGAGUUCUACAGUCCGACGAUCGGACGGUGCUGGUUUUCUACCUGCUUACUCUUGUUCUCACAGGCAGGGGACCAGCAACCCCCGAUAUUUCUGGAACUUCUUUGACCUGGAAGGAACCUUUGGGAGCUGUGACUCCCUGUGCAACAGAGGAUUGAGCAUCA: 0.16 ratio
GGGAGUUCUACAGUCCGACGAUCAUCGUUGAGGAGUCUUUUAAAUUAGAUUUUUGUUUUGUUGUCUCCCAAGUUAAUAUUAUAUUCCGAUAUCAGAGAGUCAGGCAAAAAGGAAAACUUUUAUCUCUAGGGAAAAAACAUUUACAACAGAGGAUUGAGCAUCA: 3.54 ratio
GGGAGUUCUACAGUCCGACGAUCCUCACGCAGCAGUUGUGGUCAAUAUUGUGGUAGUCGCUAAUUGUACUGGUUUAAGUGUGCAUCCGCCGUGUCUCCCCAGCUAGAUUGUAAGCUCCUGGAGACAGGGACCACCUCCACCAACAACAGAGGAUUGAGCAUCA: 0.3 ratio
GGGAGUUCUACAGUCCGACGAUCCAGCUGUGGGAAACGAGCUUUGCUUUUAUAUAUAUAUAUAUAUAUAUAUAUAUAUAUUUAAACCGGAUACUUUUAUAUGAUGGGUGCUUUGAGUGUGAAUGCAGCAGGCUCUAUCUCAGACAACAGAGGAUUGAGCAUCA: 1.1 ratio
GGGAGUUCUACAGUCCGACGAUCUUUGCUAGCCAAGGAAAGUAAAAUGUGAUUUUGUAACUGCACUAAACAUUUGUCAUGCUGCCGUUGCCAGCCCAGAAUAUUAGAAGUUACAAGACUGAUUUAAACCGUCUCUGAUUUAAUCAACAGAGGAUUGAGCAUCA: 0.122 ratio
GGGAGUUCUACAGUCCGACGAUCCUGAAACCAGCCAAUGUUUUCCUGGAUGGCAAGCAAAACGUCAAGCUUGGAGACUUUGGGCCCGCCCGAAUAUUAAACCAUGACACGAGUUUUGCAAAAACAUUUGUUGGCACACCUUAUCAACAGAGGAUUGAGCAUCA: 0.204 ratio
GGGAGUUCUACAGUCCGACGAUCACCACUCAACAAACAGUCCCCACCACACCUAUCUCCUUAGGCAAGACUUUGCCUCUCUCCCCGUCCUGAGUAUAAAUCCUGUGCAUAGAUUCCUCUAGAAAGGCAUCAAAAGGCUCAACACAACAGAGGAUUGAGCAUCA: 1.02 ratio
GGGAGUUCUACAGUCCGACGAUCUUUGGUGCCAUUGGUUUCUUCUGGGUUGAGUGAGAUGUUGGAUAUUGCUAUCAAUCGCAGCCGUCUUUCCCCUGUGUGAGGCUGAAGCCUCAGAUUCCUUCUAAACACAGCUAUCUAGAGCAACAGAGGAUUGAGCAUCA: 0.215 ratio
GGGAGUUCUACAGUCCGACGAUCUCUGAUGUCUCCCAGAUGAAUGAUAGACUGGGGGAAGAUGAGUCCUUGCUAAUGAAAUUGUACCGCUUCCUCCUAAAUGAGUCCCCCUUGAACCCACUACUCGCCAGUUUCUUCAGCAAGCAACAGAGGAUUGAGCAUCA: 0.245 ratio

Series 3 — method: protein binding microarray; molecule type: double-stranded DNA, one strand shown; medium: in vitro; tested at: not given; relative to: not given; direction: higher = stronger binding; quantity: E-score
Target: Histone acetyltransferase KAT6A, winged helix 2, GST fusion (KAT6A, Homo sapiens, UniProt Q92794, residues 85-181)
Setting: 8-mer, flanks averaged, mean of 2 arrays, mostly near background
Residues (chain): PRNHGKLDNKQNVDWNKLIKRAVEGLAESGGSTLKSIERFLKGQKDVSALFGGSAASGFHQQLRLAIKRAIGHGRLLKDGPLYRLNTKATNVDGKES
CAAAACGC: -0.0423
ATTGGTGA: -0.0312
GACCTTCA: -0.0814
AGTGTTGG: -0.0838
ATTTCTTG: 0.12
AATAACGA: -0.0826
ATGATAGC: 0.21
ATGGCACC: -0.103
CCCACTTA: 0.0289
ACAGCTGG: -0.137
AGAGCAAA: 0.191
ACCGCCAC: 0.0309
AGGCAGCA: 0.0746
AGATCGTC: -0.16
TCTTTACA: 0.1
ACTTGACT: -0.233
AGGCATGC: 0.0692
CAGAGTGG: 0.0359
ACCGATAT: -0.0791
ATTCCGAA: 0.101
TTCTAGAA: 0.186
AATCAGAT: -0.00515
AGATCTCG: -0.0328
GTAGGGAA: -0.086

Series 4 — method: universal PBM; molecule type: double-stranded DNA, one strand shown; medium: in vitro; tested at: 600 nM; direction: higher = stronger binding; quantity: E-score
Target: Sal-like protein 4, full length isoform A (SALL4, Homo sapiens, UniProt Q9UJQ4, residues 1-1053)
Sequence of UniProt Q9UJQ4 (whole entry, looked up): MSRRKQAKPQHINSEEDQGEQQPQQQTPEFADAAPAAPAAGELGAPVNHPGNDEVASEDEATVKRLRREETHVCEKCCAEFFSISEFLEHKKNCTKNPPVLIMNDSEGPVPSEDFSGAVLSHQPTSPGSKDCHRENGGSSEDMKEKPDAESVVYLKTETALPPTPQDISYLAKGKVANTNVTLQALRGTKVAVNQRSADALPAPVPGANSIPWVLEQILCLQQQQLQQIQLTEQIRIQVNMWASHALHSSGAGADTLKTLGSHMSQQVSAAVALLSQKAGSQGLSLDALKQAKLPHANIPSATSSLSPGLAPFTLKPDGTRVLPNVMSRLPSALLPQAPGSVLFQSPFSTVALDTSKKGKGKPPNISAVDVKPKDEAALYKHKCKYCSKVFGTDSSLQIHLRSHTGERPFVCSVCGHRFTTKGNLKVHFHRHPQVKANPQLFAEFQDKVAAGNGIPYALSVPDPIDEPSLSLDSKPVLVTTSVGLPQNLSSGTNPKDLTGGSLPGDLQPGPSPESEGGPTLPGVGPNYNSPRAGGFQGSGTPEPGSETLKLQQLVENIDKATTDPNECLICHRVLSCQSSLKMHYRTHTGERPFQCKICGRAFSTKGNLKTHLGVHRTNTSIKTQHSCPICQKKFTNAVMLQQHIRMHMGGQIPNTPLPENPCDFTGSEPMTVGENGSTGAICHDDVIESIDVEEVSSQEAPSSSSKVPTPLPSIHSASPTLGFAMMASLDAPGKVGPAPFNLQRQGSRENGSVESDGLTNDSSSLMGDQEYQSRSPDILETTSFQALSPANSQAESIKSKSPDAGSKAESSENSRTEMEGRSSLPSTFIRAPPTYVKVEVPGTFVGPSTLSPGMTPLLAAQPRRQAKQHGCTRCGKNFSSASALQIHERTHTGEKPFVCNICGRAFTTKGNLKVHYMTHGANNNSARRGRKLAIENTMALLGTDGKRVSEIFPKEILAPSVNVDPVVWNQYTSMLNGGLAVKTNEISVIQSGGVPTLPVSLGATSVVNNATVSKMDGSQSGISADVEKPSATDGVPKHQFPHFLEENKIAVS
Setting: 8-mer, flanks averaged, mean of replicates
CATAGTTA: 0.33
CCCTGGAG: -0.302
ACACTGCT: -0.0709
CTCGAGAA: -0.153
AACGCCTG: -0.149
CTGCGGCA: -0.175
ATGAGATC: 0.106
AAGGCTCC: -0.293
CCGATAAG: -0.0156
CTAGCCGA: -0.0857
AACTAGGA: 0.0383
AGGCAATG: -0.039
ACATCCCT: -0.0986
AACAAACG: -0.0131
AAAGTGGC: -0.1
CCGTACTA: 0.051
GCTGTGAC: -0.156
CGGACAAC: -0.107
ACTCCGTG: -0.2
AGTCACGA: -0.0411

For quick reference, copied from above (series 2):
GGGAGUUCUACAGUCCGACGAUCAUCGUUGAGGAGUCUUUUAAAUUAGAUUUUUGUUUUGUUGUCUCCCAAGUUAAUAUUAUAUUCCGAUAUCAGAGAGUCAGGCAAAAAGGAAAACUUUUAUCUCUAGGGAAAAAACAUUUACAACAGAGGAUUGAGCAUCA: 3.54 ratio
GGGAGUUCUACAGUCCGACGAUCCUGAAACCAGCCAAUGUUUUCCUGGAUGGCAAGCAAAACGUCAAGCUUGGAGACUUUGGGCCCGCCCGAAUAUUAAACCAUGACACGAGUUUUGCAAAAACAUUUGUUGGCACACCUUAUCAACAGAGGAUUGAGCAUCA: 0.204 ratio
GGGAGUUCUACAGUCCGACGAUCCUCACGCAGCAGUUGUGGUCAAUAUUGUGGUAGUCGCUAAUUGUACUGGUUUAAGUGUGCAUCCGCCGUGUCUCCCCAGCUAGAUUGUAAGCUCCUGGAGACAGGGACCACCUCCACCAACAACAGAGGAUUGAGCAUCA: 0.3 ratio
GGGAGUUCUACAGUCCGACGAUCUUUGGUGCCAUUGGUUUCUUCUGGGUUGAGUGAGAUGUUGGAUAUUGCUAUCAAUCGCAGCCGUCUUUCCCCUGUGUGAGGCUGAAGCCUCAGAUUCCUUCUAAACACAGCUAUCUAGAGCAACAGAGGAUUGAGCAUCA: 0.215 ratio
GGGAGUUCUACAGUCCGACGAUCUUUGCUAGCCAAGGAAAGUAAAAUGUGAUUUUGUAACUGCACUAAACAUUUGUCAUGCUGCCGUUGCCAGCCCAGAAUAUUAGAAGUUACAAGACUGAUUUAAACCGUCUCUGAUUUAAUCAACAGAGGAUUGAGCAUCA: 0.122 ratio
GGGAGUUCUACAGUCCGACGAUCACCACUCAACAAACAGUCCCCACCACACCUAUCUCCUUAGGCAAGACUUUGCCUCUCUCCCCGUCCUGAGUAUAAAUCCUGUGCAUAGAUUCCUCUAGAAAGGCAUCAAAAGGCUCAACACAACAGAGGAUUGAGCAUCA: 1.02 ratio
